Results gathered from unrelated publications.
Every numbered part comes from another study and shows a few of its results, in no order. Changes are numbered by the printed parent chain.

Series 1 — method: universal PBM; form: double-stranded DNA, one strand shown; sample: in vitro; concentration: not given; reading: higher = stronger binding
Target: Sal-like protein 4, full length isoform B (SALL4, Homo sapiens, UniProt Q9UJQ4-2, residues 1-616)
Notes: 8-mer, flanks averaged, mean of replicates
Target sequence (chain): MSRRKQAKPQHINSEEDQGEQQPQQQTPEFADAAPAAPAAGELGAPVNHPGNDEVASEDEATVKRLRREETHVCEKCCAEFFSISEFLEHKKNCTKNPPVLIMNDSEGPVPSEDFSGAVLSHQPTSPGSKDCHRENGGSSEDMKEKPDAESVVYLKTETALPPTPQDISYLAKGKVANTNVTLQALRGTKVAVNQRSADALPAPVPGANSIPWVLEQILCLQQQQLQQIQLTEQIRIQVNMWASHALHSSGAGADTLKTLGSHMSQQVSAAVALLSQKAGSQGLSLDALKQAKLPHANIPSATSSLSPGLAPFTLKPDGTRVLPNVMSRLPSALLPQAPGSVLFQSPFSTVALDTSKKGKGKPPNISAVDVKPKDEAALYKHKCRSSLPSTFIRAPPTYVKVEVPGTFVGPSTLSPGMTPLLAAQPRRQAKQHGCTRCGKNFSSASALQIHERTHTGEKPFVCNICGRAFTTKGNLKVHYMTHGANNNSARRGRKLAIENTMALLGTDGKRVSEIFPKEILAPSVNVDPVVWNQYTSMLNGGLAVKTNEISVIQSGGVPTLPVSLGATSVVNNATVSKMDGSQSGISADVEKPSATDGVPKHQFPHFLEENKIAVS
Oligonucleotide | E-score
AAATTGAC | 0.156
AAGTATCT | 0.14
CGTAACTA | 0.0744
GCCTAAAA | 0.00381
GCTCTAAA | -0.0979
ATAAGCAG | 0.149

Series 2 — target: CCNA1, cyclin fold, Cln2 fusion (human); method: yeast growth competition, sequencing; sample: yeast; notes: weak parent motif; baseline: not given; reading: higher = stronger binding
Starting sequence: BORA docking peptide (human); SSLRRKLFLDGNG; partner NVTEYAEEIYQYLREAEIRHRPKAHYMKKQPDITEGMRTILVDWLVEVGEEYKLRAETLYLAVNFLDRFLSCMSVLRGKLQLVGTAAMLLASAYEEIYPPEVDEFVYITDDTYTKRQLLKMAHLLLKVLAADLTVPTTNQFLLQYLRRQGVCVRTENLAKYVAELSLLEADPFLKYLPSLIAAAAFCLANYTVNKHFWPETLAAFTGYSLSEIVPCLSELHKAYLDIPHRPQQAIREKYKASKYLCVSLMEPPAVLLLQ
Substitution | normalised enrichment score
SSLRRKLFFDGNG [L9F] | 0.098
SSLRAKLFLDGNG [R5A] | 0.301
SSLRRKLFLDGNA [G13A] | 0.208
SSLRRKLFLAGNG [D10A] | -0.137
SSLARKLFLDGNG [R4A] | 0.301
ASLRRKLFLDGNG [S1A] | 0.223
SSLRKKLFLDGNG [R5K] | 0.165
SSLRRALFLDGNG [K6A] | 0.387

Series 3 — method: RNA Bind-n-Seq; form: RNA; sample: in vitro; concentration: 365 nM; baseline: no-protein control; reading: higher = stronger binding
Target: RNA binding protein fox-1 homolog 2, RRM domain, GST-SBP tag (RBFOX2, Homo sapiens, UniProt O43251-10, residues 100-194)
Notes: natural RNA segment, single round, ends assumed
Shared flanks, not repeated: GGGAGUUCUACAGUCCGACGAUC … UGGAAUUCUCGGGUGCCAA
Oligonucleotide | RBNS enrichment (R)
UUUAUAGUUCUCCAUUUGUCUCAUGUUCCGAAUGUGAAGUGUCCUAAUGUGUAUUAAAGUCAGAAAAUAAUAUAUUUAAGGUAUACUAAGUAUGAAUCUGCUAUGAUAAA | 0.827
CUAUGCUCUUUAAUGGAGAAUCUGUUGUCGAAAGGAAGAUGGCCAGAAAUAAGAACUUCAGGACCACGUGGCUUUGCAUAUACAGAGCUUAACAAGCUUUGAGAAACUCA | 0.382
CUCCUCUUGGGGAAAUUGUGUAUGUAUUCACUUAGGUCAAAGCCUGACCUUCGAGCAACCUCUCCUAGCCAAUAUAUUAUUCCAGAGACCAGGAUGACCUAGCAGGCAGG | 0.706
UUUAUUGAUUGCUUCUUUCCAAAAUCGAAAAGAAAGAAAAAAGAACGUGACAGGAGAAGGGAAGCUGGAAACUGCCAUGGCCAGAAUUGCCCCUCCCCCACACUCACUGC | 2.15
AAGAUGCAAGGGAACAUGGGGUCAAAGGGGCCACCCACCACAUCUGAUGAUAUGUUAGUUUUGUUGUUCUUUGGGGUUUUAUUCUUCCAGGUAUGUUAUGCACUACAGCC | 10.5
GUUUUAAGAUUCUGUAAUAUAGUUCCACUGGGAAUUUUCCAUGCAACUUCGGAAGAUGCAGUUGUACGUGGCUAUUCCAUUCCUAAAGGCACAACAGUCAUUACAAAUCU | 0.472
GGGAAGGGUGUGGGUGCUGGGAUGGGGGUGAAUUUCAAGUUGAAACACGAUGAUGUGGUCUGCUUGCUCUCUGCUUAGACAGGCUUUAAGACCAAUUGGAUUUUCAUGGA | 1.29

Further values, each from its own experiment
Substance | target | test | test system | conditions | how to read | measurement | value
PhoQ, residues 284 288 289 292 302 303 AGGCYF | PhoP, residues 12 14 15 18 19 LYHSL (Escherichia coli, UniProt P23836) | Sort-seq, item: YFP reporter | E. coli | PhoQ-PhoP variant library, added: 10 µM Mg2+ | baseline: high Mg2+ state, higher = stronger signaling | fold induction | 23.9

A few entries again (series 2):
Substitution | normalised enrichment score
SSLRRKLFLDGNA [G13A] | 0.208
SSLRRKLFFDGNG [L9F] | 0.098
